Results from different studies.
“And” joins repeats or separate records; there may be more than shown.
Target: Cytochrome P450 3A4 (CYP3A4, Homo sapiens, UniProt P08684)
Chain of UniProt P08684 (whole entry, looked up): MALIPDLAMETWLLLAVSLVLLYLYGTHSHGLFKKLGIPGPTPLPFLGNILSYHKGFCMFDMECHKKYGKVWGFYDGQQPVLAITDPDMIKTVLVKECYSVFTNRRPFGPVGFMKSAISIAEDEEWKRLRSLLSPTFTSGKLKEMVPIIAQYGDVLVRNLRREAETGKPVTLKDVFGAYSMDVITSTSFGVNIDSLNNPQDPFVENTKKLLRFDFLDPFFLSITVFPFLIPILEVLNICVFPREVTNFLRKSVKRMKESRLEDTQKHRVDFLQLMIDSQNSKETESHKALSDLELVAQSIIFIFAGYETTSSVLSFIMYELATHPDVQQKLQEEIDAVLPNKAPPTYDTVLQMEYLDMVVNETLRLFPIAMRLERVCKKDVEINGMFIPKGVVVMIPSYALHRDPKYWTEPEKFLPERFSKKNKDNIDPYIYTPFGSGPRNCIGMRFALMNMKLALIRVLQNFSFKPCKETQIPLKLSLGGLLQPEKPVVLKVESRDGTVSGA

SMILES | test | test system | setting | scale | endpoint | result
N#C[C@H](C[C@@H]1CCCNC1=O)NC(=O)[C@H](CC1CC1)NC(=O)c1cc2cccc(Cl)c2[nH]1 | enzyme activity, time-dependent inhibitor | human liver microsomes | with: midazolam 1'-hydroxylation | – | kinact | 0.00103 s⁻¹
CN(C(=O)n1cnc(-c2ccc[n+]([O-])c2)c1)C1CCCCC1 | inhibitor | pooled human liver microsomes | 0.1 to 30 µg/mL | reference: control | remaining activity | 86.6%
Cc1nc2c([nH]1)c(=O)n(C)c(=O)n2Cc1ccco1 | enzyme activity, inhibitor | – | 40 µM | – | inhibition | -22%
CNC(=O)NC1CCC(CCN2CCN(c3cccc(Cl)c3Cl)CC2)CC1 (stereo not drawn) | – | human | oral, dose not given, outlier subject excluded, with: erythromycin | reference: compound alone | Cmax increase | 13%
O=C(CCCCCCC(=O)Nc1ccccc1)NO | inhibitor, Vivid fluorescent | recombinant enzyme | tested 0.47 to 60 µM | – | IC50 | no inhibition
C=CC(=O)Nc1cc(Nc2nccc(-c3cn(C)c4ccccc34)n2)c(OCC(F)(F)F)nc1N(C)CCNC | substrate, recombinant enzyme | – | – | – | fraction metabolized | 83.3% and 83.2%
CCC(C)n1ncn(-c2ccc(N3CCN(c4ccc(OCC5COC(Cn6cncn6)(c6ccc(Cl)cc6Cl)O5)cc4)CC3)cc2)c1=O (stereo not drawn) | – | human, both sexes, plasma | oral, 200 mg, multiple doses, with: pirtobrutinib | – | Tmax | 3 h
CCCCC1=NC2(CCCC2)C(=O)N1Cc1ccc(-c2ccccc2S(=O)(=O)Nc2noc(C)c2C)c(COCC)c1 | substrate | recombinant human CYP | – | – | fraction metabolized | 81.3%
O=C(O)c1cc(-c2ccc(-c3cc[nH]n3)cc2)c2ccc(-c3ccc(C(F)(F)F)cc3)cc2c1 | – | – | 10 µM | – | inhibition | no inhibition
C=CC(=O)Nc1cc(Nc2nccc(-c3cn(C)c4ccccc34)n2)c(OCC(F)(F)F)nc1N(C)CCN(C)C | substrate depletion | recombinant human CYP | 1 µM | – | intrinsic clearance | 3.79 µL/min/pmol
NC(=O)NC1CCC(CCN2CCN(c3cccc(Cl)c3Cl)CC2)CC1 (stereo not drawn) | – | human | oral, dose not given, outlier subject excluded, with: erythromycin | reference: compound alone | Cmax increase | 55%
CSc1ccccc1C(=O)NCCn1cc(C(=O)NCc2cccc(C)n2)c(=O)c2cc3c(cc21)OCO3 | enzyme activity, inhibitor | human liver microsomes | 20 min, 30 min NADPH preincubation, with: testosterone 50 µM | – | IC50 | 6.71 µM
C=CC(=O)N(C)CCOc1c(N)ncnc1-c1cc(F)cc(NC(=O)c2ccc(C3CC3)cc2F)c1C | – | recombinant enzyme | pH 7.4 | – | Vmax | 16.3 min⁻¹
Cc1cc(Nc2ncnc3ccc(NC4=NC(C)(C)CO4)cc23)ccc1Oc1ccn2ncnc2c1 | – | healthy volunteers, plasma | oral, 300 mg, day 1, single dose alone | – | %AUCextrap, median | 0.968%
C[C@@H](Oc1ccc(S(C)(=O)=O)cc1C(=O)N1C[C@@H]2C[C@]2(c2cc(C(F)(F)F)on2)C1)C(F)(F)F | recombinant CYP, average | – | – | – | CYP contribution | 96.4%
C=C(F)C(=O)N1CCN(c2nc(OC[C@@H]3CCCN3C)nc3c2CCN(c2cccc4cccc(Cl)c24)C3)C[C@@H]1CC#N | – | healthy volunteers, plasma | 200 mg, alone, geometric mean | – | Cmax | 85.6 ng/mL
CC[C@H]1[C@@H](O)[C@@H]2[C@H](CC[C@]3(C)[C@@H]([C@H](C)CCNC(=O)NS(=O)(=O)c4ccc(C(C)(C)C)cc4)CC[C@@H]23)[C@@]2(C)CC[C@@H](O)C[C@@H]12 | – | human, plasma | dose not given, geometric mean, with: fluconazole | – | AUC(0-t) | 1490 ng·h/mL
Cn1cncc1[C@@](N)(c1ccc(Cl)cc1)c1ccc2c(c1)c(-c1cccc(Cl)c1)cc(=O)n2C | reaction phenotyping | human liver microsomes | – | – | fraction metabolised by CYP3A4 | ~36% and 36.4%
CSc1ccccc1C(=O)NCCn1cc(C(=O)NCc2cccc(C)n2)c(=O)c2cc3c(cc21)OC(F)(F)O3 | enzyme activity, inhibitor | human liver microsomes | 20 min, no NADPH preincubation, with: testosterone 50 µM | – | IC50 | 53.5 µM
O=c1[nH]ncn1-c1ccc(N2CCN(c3ccc(OCC4COC(Cn5cncn5)(c5ccc(Cl)cc5Cl)O4)cc3)CC2)cc1 (stereo not drawn) | inhibitor | human liver microsomes | with: testosterone | – | IC50 | 0.0168 µM
CCCCCC/C=C1\C=C(C(F)(F)F)c2cc3c(cc21)OCO3 | enzyme activity, inhibitor | pooled human liver microsomes | concentration not given, 30 min, 37 °C, with: midazolam | – | inhibition | no inhibition
CO[C@]1(C(=O)N[C@@H](C)c2ccc(-n3cc(F)cn3)nc2)CC[C@H](c2nc(C)cc(Nc3cc(C)[nH]n3)n2)CC1 | time-dependent inactivation, inactivator | human liver microsomes | – | – | kinact | 0.002 s⁻¹
COc1ccc(F)cc1C(=O)NCc1ccc(-c2nn([C@@H](C)C(F)(F)F)c(N)c2C(N)=O)cc1 | – | human, both sexes, plasma | oral, dose not given, with: rifampin 600 mg once daily | reference: without rifampin | AUC decrease | 71%
Cc1cc(Nc2ncnc3ccc(NC4=NC(C)(CO)CO4)cc23)ccc1Oc1ccn2ncnc2c1 (stereo not drawn) | – | human, plasma | oral, 300 mg tucatinib single dose, day 1, tucatinib alone | – | Cmax (arithmetic mean) | 65.3 ng/mL

A few entries again:
SMILES | test | test system | setting | scale | endpoint | result
CNC(=O)NC1CCC(CCN2CCN(c3cccc(Cl)c3Cl)CC2)CC1 (stereo not drawn) | – | human | oral, dose not given, outlier subject excluded, with: erythromycin | reference: compound alone | Cmax increase | 13%
O=C(CCCCCCC(=O)Nc1ccccc1)NO | inhibitor, Vivid fluorescent | recombinant enzyme | tested 0.47 to 60 µM | – | IC50 | no inhibition
C=CC(=O)Nc1cc(Nc2nccc(-c3cn(C)c4ccccc34)n2)c(OCC(F)(F)F)nc1N(C)CCNC | substrate, recombinant enzyme | – | – | – | fraction metabolized | 83.3% and 83.2%
CCC(C)n1ncn(-c2ccc(N3CCN(c4ccc(OCC5COC(Cn6cncn6)(c6ccc(Cl)cc6Cl)O5)cc4)CC3)cc2)c1=O (stereo not drawn) | – | human, both sexes, plasma | oral, 200 mg, multiple doses, with: pirtobrutinib | – | Tmax | 3 h
